# Experimental data pooled from the literature.
# A part holds a random share of what one study measured.

# Set 1
# Target: RNA binding protein fox-1 homolog 2, RRM domain, GST-SBP tag (RBFOX2, Homo sapiens, UniProt O43251-10, residues 100-194)
# Method: RNA Bind-n-Seq
# Form: RNA
# Sample: in vitro
# Concentration: 365 nM
# Notes: natural RNA segment, single round, ends assumed
# Relative to: no-protein control
# Reading: higher = stronger binding
# Shared flanks, not repeated: GGGAGUUCUACAGUCCGACGAUC … UGGAAUUCUCGGGUGCCAA
# Residues (chain): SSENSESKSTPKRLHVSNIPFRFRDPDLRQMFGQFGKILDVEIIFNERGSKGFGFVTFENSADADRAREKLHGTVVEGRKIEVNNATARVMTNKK
Oligonucleotide,RBNS enrichment (R)
AUGUAAACUAUUCUUUAGAAAAAUGCAUUCACUCUUUAAUAAAAGUAUGUUUGUGUUAAUAAAGCCAGGGCGUUUCACACUUUAUAUGAACUUCCCUUUUUUUAAGAAAU,0.43
UGUAAAGUGCCCAAGAUCCUGCACCCAUAUCUUGGAACUUAUCUUUGUUCUACAUCAUUCUCUCUUGAUCAAGAAAUGAAAUUUCUUAAUCCUUGAAUAUUAGUAAGGUC,0.289
UACCCUCUUUAACAACAUAAAUUCAUAGCUAAAGAAAAACUGCAUGUGCAAAUAAUACCAUAUUCAUUUUUUAUUUAACAUGGGGAUGGAAUGGGGAUAGCAUACAUUUU,2.07
GAACUCAGAAGGAUGGCAUUUUUUGCAAGUUAAAGAAAAUCAGGAUCUGAGUUAUUUUGCUAAACUUGGGGGAGGAGGAACAAAUAAAUGGAGUCUUUAUUGUGUAUCAU,1.95
CAUAGCAAGUUUCAGGGCAGUGUGGGUAUGAGGUUGUGUCUCAAAAACAUUUGAAAGCAUGUUGUGCAUGUGUGAGAGAGUGGCGUGGCUGGUCUCAGGCUGACACUCGA,40
AAGAAUUUGUCCUGUGGGUUUGGAAUCUUGGAUUUUCCCCCUUUAUGAACUGUACUGGCUGUUGACCACCAGACACCUGACCGCAAAUAUCUUUUCUUGUAUUCCCAUAU,0.53
GGCUACCUCCUCUGACAUGCGGUCAGAUAAGUCCCGUCUUGUUUGUGAGUACCACAGAAACGCCUGAGAGUCACUUACCCGGCCACUGCUUGGAAGGUUUCCCUCCGGGG,0.349
CUUUUCUAUUACUAAAUCUGAAAUAAAAUCAGUUUCUUUCCAGUUUAAAUGUUAACCAUUUGCAGAUUGCAUUAGCAUGUCUCUGCCUCUCUACCCUGAAAUGGGUGAAG,2.45

# Set 2
# Target: Interferon regulatory factor 7, full length, phosphomimetic (IRF7, Homo sapiens, UniProt Q92985, residues 1-503, S101K/S471D/S472D/S475D/S476D/S477D/S483D/S484D/S487D)
# Method: protein-binding microarray
# Form: double-stranded DNA, one strand shown
# Sample: in vitro
# Concentration: 250 nM
# Notes: 60-bp whole probe
# Added: salmon DNA 0.4 mg/ml
# Relative to: random background probes
# Reading: higher = stronger binding
# Shared flanks, not repeated: GCCTAGCAC … GTCTTGATTCGCTTGACGCTGCTG
# Residues (chain): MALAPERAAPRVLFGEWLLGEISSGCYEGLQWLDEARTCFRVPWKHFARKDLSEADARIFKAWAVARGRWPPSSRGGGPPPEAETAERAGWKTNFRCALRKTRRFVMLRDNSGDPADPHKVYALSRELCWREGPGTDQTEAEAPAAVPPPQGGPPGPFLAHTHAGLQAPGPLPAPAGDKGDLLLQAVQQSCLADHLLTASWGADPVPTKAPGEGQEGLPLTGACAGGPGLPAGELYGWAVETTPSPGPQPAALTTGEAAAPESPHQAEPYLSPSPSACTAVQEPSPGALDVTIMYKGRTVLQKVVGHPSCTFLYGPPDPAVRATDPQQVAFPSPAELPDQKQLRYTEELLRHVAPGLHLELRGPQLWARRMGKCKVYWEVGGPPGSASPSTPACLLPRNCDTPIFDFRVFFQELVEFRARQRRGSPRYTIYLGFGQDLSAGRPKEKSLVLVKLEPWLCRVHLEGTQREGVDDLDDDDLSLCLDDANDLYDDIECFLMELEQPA
Oligonucleotide,log fluorescence [z-score]
GACGGTATCGGGTCTCGGGACGTGCTA,0.96
GACGGTTTCCTTTTCCTAACGTGCTAG,7.4
TTACGTTTCGGGTTTCGGTTAGTGCTA,9.94
GTAGATTTCAGACTGGATTAGTGCTAG,0.00066
GACGGTATCGGTTTCGGTACGTGCTAG,7.99
TTAGGTATCGACTTTGGGTTAGTGCTA,0.855
TTAGGACTGGGACTGGGGTAGTGCTAG,-0.323
GACGATATCAGACTGGAAACGTGCTAG,0.0995
GGAGTTTCCACCCTTCTCTCGTGCTAG,1.51
TTAGGTTTCGACTTGCGGTTAGTGCTA,12.1
GACGGTTCCCTTTGCCTGACGTGCTAG,0.935
TCTAACTTCCCAATGGTCTTGTGCTAG,0.828
GACGGTATCGTTATCGGGACGTGCTAG,1.18
GACGATATTAGTTTCGAGACGTGCTAG,5.13
TTAGGTTCCGGTATCGGTTAGTGCTAG,3.72
GACGGTATCGGACTGGCGACGTGCTAG,-0.568
TTAGGTTTCCTACTGCTTGAGTGCTAG,1.33
TCACACCAGAGGGCGCTGTGGTGCTAG,-0.56
TTAGGTATCCTTATCATTTAGTGCTAG,0.481

# Set 3
# Target: Histone acetyltransferase KAT6A, winged helix 1, GST fusion (KAT6A, Homo sapiens, UniProt Q92794, residues 1-85)
# Method: protein binding microarray
# Form: double-stranded DNA, one strand shown
# Sample: in vitro
# Concentration: not given
# Notes: 8-mer, flanks averaged, mean of 2 arrays, mostly near background
# Relative to: not given
# Reading: higher = stronger binding
# Target sequence (chain): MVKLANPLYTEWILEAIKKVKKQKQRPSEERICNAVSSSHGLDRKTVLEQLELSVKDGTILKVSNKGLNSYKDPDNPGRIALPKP
Oligonucleotide,E-score
GTTTCAAA,-0.0872
AGGAATAG,-0.104
TGGTACAA,-0.172
CGCCTGTA,0.00456
CACCTATC,-0.144
CGAGTCGA,-0.109
AACTCGAC,-0.146
ACCGGAGT,0.178
CGTCATAG,0.093
AGATAACA,-0.197
CAGAGTCA,-0.0347
CGCATTGA,0.252
AATCACTA,-0.102
CCCGAGAC,0.136
ATGTTAGG,-0.0719
ACACTGGA,-0.16
AAAACTAG,-0.116
ATAGAACG,-0.0257
CTAAAGCA,-0.0913
CTCTCGGA,-0.00446
GGATTCCC,-0.0577
ACTCAGTG,-0.312
ATGGTCCA,-0.169
AAAGGCGG,0.232
CTGGCTGC,-0.0561

# Set 4
# Target: Sal-like protein 4, full length isoform A (SALL4, Homo sapiens, UniProt Q9UJQ4, residues 1-1053)
# Chain of UniProt Q9UJQ4 (whole entry, looked up): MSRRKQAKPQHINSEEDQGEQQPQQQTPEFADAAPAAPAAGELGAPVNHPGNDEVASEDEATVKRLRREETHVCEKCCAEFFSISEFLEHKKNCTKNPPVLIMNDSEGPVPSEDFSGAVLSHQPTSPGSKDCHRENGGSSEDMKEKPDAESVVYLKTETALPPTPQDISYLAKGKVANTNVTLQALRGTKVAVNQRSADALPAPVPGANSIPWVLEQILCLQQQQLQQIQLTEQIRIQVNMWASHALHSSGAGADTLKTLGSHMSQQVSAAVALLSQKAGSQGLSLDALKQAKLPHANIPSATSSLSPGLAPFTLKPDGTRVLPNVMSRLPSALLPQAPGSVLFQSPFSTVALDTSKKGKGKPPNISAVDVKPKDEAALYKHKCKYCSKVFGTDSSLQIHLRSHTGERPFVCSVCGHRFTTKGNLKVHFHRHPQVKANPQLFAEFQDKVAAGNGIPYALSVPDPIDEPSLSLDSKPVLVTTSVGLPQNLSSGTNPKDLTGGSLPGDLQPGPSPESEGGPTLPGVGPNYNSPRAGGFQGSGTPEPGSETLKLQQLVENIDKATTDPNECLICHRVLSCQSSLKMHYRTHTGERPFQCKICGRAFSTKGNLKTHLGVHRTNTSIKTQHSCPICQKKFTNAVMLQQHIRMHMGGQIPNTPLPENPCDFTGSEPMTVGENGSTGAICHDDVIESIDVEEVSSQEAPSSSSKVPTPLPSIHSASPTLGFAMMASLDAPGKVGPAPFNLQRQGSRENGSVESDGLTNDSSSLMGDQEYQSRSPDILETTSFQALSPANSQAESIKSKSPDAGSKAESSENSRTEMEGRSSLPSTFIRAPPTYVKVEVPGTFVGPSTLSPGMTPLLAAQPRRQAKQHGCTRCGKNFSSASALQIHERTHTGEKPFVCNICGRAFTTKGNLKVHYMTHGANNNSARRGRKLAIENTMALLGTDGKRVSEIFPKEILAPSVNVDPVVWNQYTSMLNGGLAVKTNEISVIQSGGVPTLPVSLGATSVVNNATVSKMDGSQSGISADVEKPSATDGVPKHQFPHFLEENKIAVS
# Method: universal PBM
# Form: double-stranded DNA, one strand shown
# Sample: in vitro
# Concentration: 600 nM
# Notes: 8-mer, flanks averaged, mean of replicates
# Reading: higher = stronger binding
Oligonucleotide,E-score
CTCTGAGA,-0.052
CACCCATA,-0.139
GCGAATCA,0.0631
ATGGAAGG,0.0372
GAAGCACA,0.0481
AACGGTAG,-0.0745
TGGTTACA,0.0694
AAGAAATG,0.248
AAATTCCT,0.105
GCTATGCC,-0.0858
CTCTTTGA,0.0503
CTTATTTA,0.263
CACAACAG,0.0264
CAGGTCAC,-0.254
GGCTTCTA,-0.0769
ACATCATG,0.0156
AGAGGCGG,-0.139
ACGCGACT,-0.166
AATGGCGT,-0.156
GAGTGTAC,-0.0931
CACTGTCG,-0.209
CTGTTTCC,0.113
CCATGGAA,0.000935

# Excerpt of the above (set 4):
Oligonucleotide,E-score
AAATTCCT,0.105
GGCTTCTA,-0.0769
GAAGCACA,0.0481
GCTATGCC,-0.0858
GCGAATCA,0.0631
TGGTTACA,0.0694
CTCTTTGA,0.0503
